Published values from different studies.
Every numbered part comes from another study and shows a few of its results, in no order.
Chain of UniProt P30530 (whole entry, looked up): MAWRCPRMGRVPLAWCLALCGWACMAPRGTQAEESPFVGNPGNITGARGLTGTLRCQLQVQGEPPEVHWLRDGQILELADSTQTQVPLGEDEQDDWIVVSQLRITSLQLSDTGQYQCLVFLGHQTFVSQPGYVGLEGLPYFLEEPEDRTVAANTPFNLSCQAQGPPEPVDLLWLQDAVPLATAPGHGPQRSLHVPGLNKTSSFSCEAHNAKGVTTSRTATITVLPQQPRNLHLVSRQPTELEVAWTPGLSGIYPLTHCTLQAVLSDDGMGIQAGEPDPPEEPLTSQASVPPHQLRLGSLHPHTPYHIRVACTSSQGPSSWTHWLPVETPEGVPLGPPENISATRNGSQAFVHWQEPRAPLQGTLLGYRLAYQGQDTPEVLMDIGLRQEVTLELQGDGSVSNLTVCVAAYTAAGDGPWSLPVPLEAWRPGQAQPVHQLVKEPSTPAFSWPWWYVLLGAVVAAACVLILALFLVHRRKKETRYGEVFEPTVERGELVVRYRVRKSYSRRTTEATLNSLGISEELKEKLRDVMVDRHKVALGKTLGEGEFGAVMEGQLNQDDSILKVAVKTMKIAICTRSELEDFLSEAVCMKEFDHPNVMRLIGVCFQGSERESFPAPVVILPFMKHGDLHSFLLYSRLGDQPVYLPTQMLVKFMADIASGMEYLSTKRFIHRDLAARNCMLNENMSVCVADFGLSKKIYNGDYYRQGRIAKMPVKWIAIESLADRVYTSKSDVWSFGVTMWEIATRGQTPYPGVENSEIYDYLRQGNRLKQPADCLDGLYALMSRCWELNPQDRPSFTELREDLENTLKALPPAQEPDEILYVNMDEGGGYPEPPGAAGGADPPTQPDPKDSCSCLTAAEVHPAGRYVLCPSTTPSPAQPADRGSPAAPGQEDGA
Chain of UniProt Q00534 (whole entry, looked up): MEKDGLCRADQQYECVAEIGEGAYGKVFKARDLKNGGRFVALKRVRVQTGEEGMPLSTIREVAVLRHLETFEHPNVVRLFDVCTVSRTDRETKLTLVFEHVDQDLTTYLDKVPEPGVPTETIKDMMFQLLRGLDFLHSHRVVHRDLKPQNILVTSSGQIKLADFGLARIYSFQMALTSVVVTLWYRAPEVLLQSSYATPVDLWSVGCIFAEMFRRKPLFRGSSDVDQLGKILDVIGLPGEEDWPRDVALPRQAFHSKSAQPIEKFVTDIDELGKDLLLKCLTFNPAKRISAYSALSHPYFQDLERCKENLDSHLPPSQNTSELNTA
Chain of UniProt O15530 (whole entry, looked up): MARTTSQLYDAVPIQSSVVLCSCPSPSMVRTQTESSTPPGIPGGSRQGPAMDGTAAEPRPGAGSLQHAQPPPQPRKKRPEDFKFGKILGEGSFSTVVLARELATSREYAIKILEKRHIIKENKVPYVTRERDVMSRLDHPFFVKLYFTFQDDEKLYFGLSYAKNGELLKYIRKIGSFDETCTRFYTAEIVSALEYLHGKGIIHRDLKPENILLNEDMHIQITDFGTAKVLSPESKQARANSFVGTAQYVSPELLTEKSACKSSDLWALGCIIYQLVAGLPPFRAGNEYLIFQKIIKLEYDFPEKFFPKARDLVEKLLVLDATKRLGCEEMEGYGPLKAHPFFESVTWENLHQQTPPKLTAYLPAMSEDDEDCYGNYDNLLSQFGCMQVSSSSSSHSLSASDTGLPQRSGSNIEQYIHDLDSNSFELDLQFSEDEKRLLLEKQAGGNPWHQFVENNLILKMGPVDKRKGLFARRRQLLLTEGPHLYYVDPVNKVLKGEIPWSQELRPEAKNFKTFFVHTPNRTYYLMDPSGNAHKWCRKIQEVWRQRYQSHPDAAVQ
Chain of UniProt Q9UEE5 (whole entry, looked up): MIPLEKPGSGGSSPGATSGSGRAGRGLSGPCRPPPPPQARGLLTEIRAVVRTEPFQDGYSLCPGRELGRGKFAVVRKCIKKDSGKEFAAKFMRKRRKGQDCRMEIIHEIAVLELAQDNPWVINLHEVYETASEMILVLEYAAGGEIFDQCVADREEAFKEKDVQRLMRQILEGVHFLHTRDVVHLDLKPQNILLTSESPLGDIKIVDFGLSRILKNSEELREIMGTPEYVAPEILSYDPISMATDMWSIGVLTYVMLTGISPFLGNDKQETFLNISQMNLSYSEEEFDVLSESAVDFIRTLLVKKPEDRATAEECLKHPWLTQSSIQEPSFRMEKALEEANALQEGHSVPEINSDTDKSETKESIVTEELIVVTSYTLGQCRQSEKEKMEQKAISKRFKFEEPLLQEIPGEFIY
Chain of UniProt P11802 (whole entry, looked up): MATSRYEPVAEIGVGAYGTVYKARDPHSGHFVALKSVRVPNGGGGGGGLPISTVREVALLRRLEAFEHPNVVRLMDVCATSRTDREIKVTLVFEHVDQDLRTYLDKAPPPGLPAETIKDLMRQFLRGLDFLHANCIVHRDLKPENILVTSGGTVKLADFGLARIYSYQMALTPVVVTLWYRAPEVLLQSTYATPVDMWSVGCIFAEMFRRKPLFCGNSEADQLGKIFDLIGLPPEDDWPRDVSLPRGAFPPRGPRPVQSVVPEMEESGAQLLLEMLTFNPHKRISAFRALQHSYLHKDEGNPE

Series 1 — observed: ligand displacement; tested at: 10 µM
Target: Muscarinic acetylcholine receptor M2 (CHRM2, Homo sapiens, UniProt P08172)
Chain of UniProt P08172 (whole entry, looked up): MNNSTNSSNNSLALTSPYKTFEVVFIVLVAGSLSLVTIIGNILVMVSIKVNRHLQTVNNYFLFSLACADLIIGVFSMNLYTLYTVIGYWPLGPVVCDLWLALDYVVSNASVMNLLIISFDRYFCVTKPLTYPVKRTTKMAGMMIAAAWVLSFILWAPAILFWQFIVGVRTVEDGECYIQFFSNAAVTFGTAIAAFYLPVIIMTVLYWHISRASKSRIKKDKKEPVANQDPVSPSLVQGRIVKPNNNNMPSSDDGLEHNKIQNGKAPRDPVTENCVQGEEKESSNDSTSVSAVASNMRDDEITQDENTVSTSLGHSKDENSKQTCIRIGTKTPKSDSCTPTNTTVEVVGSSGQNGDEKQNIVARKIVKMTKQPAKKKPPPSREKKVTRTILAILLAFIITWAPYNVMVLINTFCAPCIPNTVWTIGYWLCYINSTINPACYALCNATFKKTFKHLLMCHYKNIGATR
`CN1CCN(c2cnc3c(C4CCN(C(=O)c5ccc(OC(F)(F)F)cc5N)CC4)ncnc3c2)CC1` has an inhibition of -0.56%.
`CCOc1ccc(S(=O)(=O)Nc2ccc(Cl)cc2C#Cc2cnc(C(=O)O)cc2OC)c2ncccc12` has an inhibition of -0.58%.
`COc1cc(C(=O)O)ncc1C#Cc1ccccc1NS(=O)(=O)c1cccc2c(N(C)C)ccnc12` gave an inhibition of 2.62%.
With `c1ccc(N2CCN(Cc3nc4ccccc4[nH]3)CC2)nc1` the inhibition was 19.5%.
`CCC(=NO)C(C)=Cc1ccc(F)c(C)c1` has an inhibition of 14.3%.
With `COc1cc(N[C@@H]2CCCC[C@]2(O)C(F)(F)F)ccc1F` the inhibition was 3.81%.
With `COc1cccc(NC(=O)c2nc3scc(CN(C)Cc4ccccc4)c3c(=O)[nH]2)c1` the inhibition was 26.6%.
For `COc1ccc2cc(OCC3(C(=O)O)CN(C(=O)c4ccc(F)cc4)C3)ccc2c1`, the inhibition was 16.7%.
For `NC(=O)c1ccc2nc(-c3ccc(C4(N)CCC4)cc3)c(-c3ccccc3)n2n1`, the inhibition was 11.2%.
The inhibition of `NS(=O)(=O)c1cc(NC(=O)Cc2ccccc2)ccc1Oc1cccc(Cl)c1` is reported as -8.33%.
`C[C@@H]1CN(c2cc(-c3n[nH]c4ccc(OC5(C)CC5)cc34)ncn2)C[C@H](C)O1` has an inhibition of 25.9%.
`CC(=O)N1CCC(c2ccc(C(=O)NC3=NCCN3)cc2C(F)(F)F)CC1` gave an inhibition of -0.799%.
`Cc1ccc(-c2cnc([C@@]3(O)CC[C@H](C(=O)O)C(C)(C)C3)s2)cc1Nc1cccc(C(F)(F)F)n1` has an inhibition of 23%.
`CN(C)CC#Cc1ccc(OCCCc2sc(N3CCc4cccc(C(=O)Nc5nc6ccccc6s5)c4C3)nc2C(=O)O)c(F)c1` gave an inhibition of 34.7%.
With `Cn1cc(Cl)c2c(Oc3c(F)cc(Nc4cc(Cl)nc(N)n4)cc3F)ccnc21` the inhibition was 0.85%.
For `Nc1cnc(N2CCc3cc(S(=O)(=O)Nc4c(F)cc(Cl)cc4F)cc(N4CCCC4=O)c32)nc1`, the inhibition was 3.7%.
The inhibition of `Cc1c(NC(=O)c2cc(C(N)=O)nc3cc(F)ccc23)c(C(F)(F)F)nn1Cc1ccc(C#N)cc1` is reported as 25.8%.
`C[C@H](c1ccc(F)cc1)N(Cc1cccc(C(=O)O)c1)C(=O)c1cnc2ccccc2c1` has an inhibition of 12.6%.
`CCc1ccccc1C(=O)Nc1n[nH]c2c(C)c(F)c(C3C(C#N)=C(C)N(C)C(C)=C3C#N)cc12` gave an inhibition of 5.1%.
`CN1CCN(c2ccnc(NCCc3ccccc3)n2)CC1` has an inhibition of -1.51%.
`CC(=O)Nc1ncc(CN2CCC[C@H](Cc3cc(C)nc(C)c3)C2)s1` has an inhibition of 9.54%.

Series 2 — Structure (SMILES): O=C1c2ccccc2-c2nc3nnnn3nc21; observed: enzyme activity; action: inhibitor; tested at: 0.5 µM; baseline: control
The remaining activity was 89.5% (EPHB1 (Homo sapiens, UniProt P54762)).
The remaining activity was 97.1% (EPHB4 (Homo sapiens, UniProt P54760)).
It gave 97.9% for remaining activity (HIPK4 (Homo sapiens, UniProt Q8NE63)).
The remaining activity was 61.1% (EPHA4 (Homo sapiens, UniProt P54764)).
STK17A (Homo sapiens, UniProt Q9UEE5) — remaining activity: 83.8%.
It gave 48% for remaining activity (Cyclin-dependent kinase 1, with cyclin B (CDK1, Homo sapiens, UniProt P06493)).
DYRK3 (Homo sapiens, UniProt O43781) — remaining activity: 88.6%.
It gave 76% for remaining activity (MAPKAPK3 (Homo sapiens, UniProt Q16644)).
The remaining activity was 9.93% (Cyclin-dependent kinase 6, with cyclin D3 (CDK6, Homo sapiens, UniProt Q00534)).
TSSK2 (Homo sapiens, UniProt Q96PF2) — remaining activity: 75%.
For PRKACG (Homo sapiens, UniProt P22612): remaining activity read 88.5%.
It gave 68.7% for remaining activity (RPS6KA5 (Homo sapiens, UniProt O75582)).
For STK16 (Homo sapiens, UniProt O75716): remaining activity read 80.5%.
For PHKG1 (Homo sapiens, UniProt Q16816): remaining activity read 92.5%.
The remaining activity was 79% (PDPK1 (Homo sapiens, UniProt O15530)).
The remaining activity was 107% (HIPK2 (Homo sapiens, UniProt Q9H2X6)).
The remaining activity was 89% (MAP4K4 (Homo sapiens, UniProt O95819)).
For RPS6KA6 (Homo sapiens, UniProt Q9UK32): remaining activity read 62.3%.
BLK (Homo sapiens, UniProt P51451) — remaining activity: 109%.
The remaining activity was 85.2% (CAMK2B (Homo sapiens, UniProt Q13554)).
For Cyclin-dependent kinase 4, with cyclin D3 (CDK4, Homo sapiens, UniProt P11802): remaining activity read 68.1%.
For WNK3 (Homo sapiens, UniProt Q9BYP7): remaining activity read 116%.
For SRMS (Homo sapiens, UniProt Q9H3Y6): remaining activity read 6.33%.
The remaining activity was 10.3% (AXL (Homo sapiens, UniProt P30530)).

Series 3 — technique: SPR
Target: DDB1- and CUL4-associated factor 1 (DCAF1, Homo sapiens, UniProt Q9Y4B6)
Chain of UniProt Q9Y4B6 (whole entry, looked up): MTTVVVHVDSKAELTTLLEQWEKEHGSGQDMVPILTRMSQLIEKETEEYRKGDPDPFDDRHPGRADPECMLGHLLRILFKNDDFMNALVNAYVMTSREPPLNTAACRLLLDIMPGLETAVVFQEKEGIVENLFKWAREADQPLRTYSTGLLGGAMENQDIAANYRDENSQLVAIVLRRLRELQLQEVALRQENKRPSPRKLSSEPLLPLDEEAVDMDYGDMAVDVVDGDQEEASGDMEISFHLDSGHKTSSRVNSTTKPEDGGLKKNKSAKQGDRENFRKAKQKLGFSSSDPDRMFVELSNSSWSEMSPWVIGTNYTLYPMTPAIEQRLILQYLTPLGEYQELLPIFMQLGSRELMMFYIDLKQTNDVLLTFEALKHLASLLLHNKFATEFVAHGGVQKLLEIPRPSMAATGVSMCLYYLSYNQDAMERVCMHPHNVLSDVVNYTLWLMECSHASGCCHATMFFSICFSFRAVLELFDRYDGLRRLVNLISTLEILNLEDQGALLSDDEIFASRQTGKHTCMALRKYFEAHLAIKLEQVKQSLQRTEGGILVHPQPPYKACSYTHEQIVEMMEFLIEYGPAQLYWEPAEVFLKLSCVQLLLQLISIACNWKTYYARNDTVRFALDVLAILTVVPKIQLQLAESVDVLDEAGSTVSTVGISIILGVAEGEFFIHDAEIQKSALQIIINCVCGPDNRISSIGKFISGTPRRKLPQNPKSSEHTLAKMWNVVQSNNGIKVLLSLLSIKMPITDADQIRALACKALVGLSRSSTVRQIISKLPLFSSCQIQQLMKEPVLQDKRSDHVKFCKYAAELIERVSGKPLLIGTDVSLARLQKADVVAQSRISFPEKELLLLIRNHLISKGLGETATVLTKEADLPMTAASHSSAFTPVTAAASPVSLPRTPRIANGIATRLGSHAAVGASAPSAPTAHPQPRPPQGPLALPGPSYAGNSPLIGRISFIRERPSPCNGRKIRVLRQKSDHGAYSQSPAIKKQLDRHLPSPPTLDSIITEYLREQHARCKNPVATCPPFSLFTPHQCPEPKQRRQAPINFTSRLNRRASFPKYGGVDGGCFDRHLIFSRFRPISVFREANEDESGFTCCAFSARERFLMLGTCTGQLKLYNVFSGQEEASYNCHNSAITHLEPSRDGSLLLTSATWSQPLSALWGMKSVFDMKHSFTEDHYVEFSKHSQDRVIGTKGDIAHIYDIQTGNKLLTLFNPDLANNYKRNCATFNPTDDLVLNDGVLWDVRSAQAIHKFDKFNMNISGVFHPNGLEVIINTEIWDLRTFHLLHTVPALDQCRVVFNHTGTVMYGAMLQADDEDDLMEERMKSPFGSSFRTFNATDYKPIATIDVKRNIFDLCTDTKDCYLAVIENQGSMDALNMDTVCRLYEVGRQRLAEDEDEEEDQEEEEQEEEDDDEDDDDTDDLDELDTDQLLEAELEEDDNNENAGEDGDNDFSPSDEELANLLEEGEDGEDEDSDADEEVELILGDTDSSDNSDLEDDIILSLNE
`C[C@@H]1CN(c2ccc(-c3cc(C(=O)NCCOCCOCCOCCOCCOCCOCCNC(=O)/C=C/c4[nH]cc(C(=O)N[C@@H](CC(N)=O)c5ccc(F)c(Cl)c5)c4-c4ccc(Cl)cc4F)ccc3F)cc2NC(=O)c2ccc(F)cc2C(F)(F)F)C[C@H](C)N1C` — result for “association rate constant”: 446000 M⁻¹ s⁻¹.
Under “association rate constant”, `C[C@@H]1CN(c2ccc(-c3cc(C(=O)NCCCNC(=O)/C=C/c4[nH]cc(C(=O)N[C@@H](CC(N)=O)c5ccc(F)c(Cl)c5)c4-c4ccc(Cl)cc4F)ccc3F)cc2NC(=O)c2c[nH]c(=O)cc2C(F)(F)F)C[C@H](C)N1C` is recorded as 53600 M⁻¹ s⁻¹.
`C[C@@H]1CN(c2ccc(-c3cc(C(=O)NCCOCCOCCOCCOCCNC(=O)/C=C/c4[nH]cc(C(=O)N[C@@H](CC(N)=O)c5ccc(F)c(Cl)c5)c4-c4ccc(Cl)cc4F)ccc3F)cc2NC(=O)c2c[nH]c(=O)cc2C(F)(F)F)C[C@H](C)N1C`: “association rate constant” 198000 M⁻¹ s⁻¹.

Series 4 — observed: enzyme activity; action: inhibitor; tested at: 10 µM
Target: Calcium/calmodulin-dependent protein kinase type II subunit alpha (CAMK2A, Homo sapiens, UniProt Q9UQM7)
Chain of UniProt Q9UQM7 (whole entry, looked up): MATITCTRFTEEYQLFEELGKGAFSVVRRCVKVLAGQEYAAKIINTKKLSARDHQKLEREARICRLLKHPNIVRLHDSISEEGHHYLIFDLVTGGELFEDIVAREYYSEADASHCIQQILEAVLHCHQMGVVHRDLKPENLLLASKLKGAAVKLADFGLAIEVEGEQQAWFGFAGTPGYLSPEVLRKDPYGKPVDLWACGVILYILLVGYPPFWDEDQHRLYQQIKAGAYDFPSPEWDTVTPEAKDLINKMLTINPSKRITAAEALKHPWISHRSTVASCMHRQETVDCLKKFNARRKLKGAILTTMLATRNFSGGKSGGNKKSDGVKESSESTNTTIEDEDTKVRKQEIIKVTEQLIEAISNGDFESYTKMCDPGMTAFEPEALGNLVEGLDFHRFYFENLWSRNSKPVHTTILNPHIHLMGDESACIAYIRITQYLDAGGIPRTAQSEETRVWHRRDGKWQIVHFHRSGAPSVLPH
`CCCCCCCCCCCCCCC(O)C(=O)O` (centres unmarked) gave an inhibition of -22%.
`CC(C)OC(=O)CCC/C=C\C[C@@H]1[C@@H](/C=C/[C@@H](O)COc2cccc(C(F)(F)F)c2)[C@H](O)C[C@@H]1O` has an inhibition of 0%.
For `C[C@H]1[C@H](C)CC[C@]2(C)CC[C@]3(C)C(=CC(=O)[C@@H]4[C@@]5(C)CC[C@@H](O)[C@](C)(C(=O)O)[C@@H]5CC[C@]43C)[C@H]12`, the inhibition was -19%.
The inhibition of `C=CC(=O)N1CCC[C@@H](n2nc(-c3ccc(Oc4ccccc4)cc3)c3c(N)ncnc32)C1` is reported as -0.15%.
The inhibition of `COc1c2ccoc2c(OC)c2oc(=O)ccc12` is reported as -3%.
`C[C@H](C(=O)O)c1ccc(-c2ccccc2)c(F)c1` has an inhibition of -3%.
With `O=C1c2c(O)cccc2[C@H]([C@@H]2O[C@H](CO)[C@@H](O)[C@H](O)[C@H]2O)c2cc(CO)cc(O)c21` the inhibition was -27%.
For `C[C@@H](c1nc(-c2ccc(C#N)cc2)cs1)[C@](O)(Cn1cncn1)c1cc(F)ccc1F`, the inhibition was 9%.
With `Cc1cccs1` the inhibition was 8%.
`COc1cc(-c2coc3cc(O[C@@H]4O[C@H](CO)[C@@H](O)[C@H](O)[C@H]4O)c(OC)c(O)c3c2=O)ccc1O` gave an inhibition of 2%.
For `COC(=O)C1=C(C)NC(C)=C(C(=O)OC(C)(C)CN(C)CCC(c2ccccc2)c2ccccc2)C1c1cccc([N+](=O)[O-])c1` (centres unmarked), the inhibition was -13%.
`O=C(O)C1=CO[C@@H](O[C@@H]2O[C@H](CO)[C@@H](O)[C@H](O)[C@H]2O)[C@@H]2C(CO)=C[C@H](O)[C@H]12` has an inhibition of 2%.
The inhibition of `COc1cc2cc(Oc3ccc4ccc(=O)oc4c3)c(=O)oc2cc1O` is reported as -35%.
`CCOC(=O)CN[C@@H](C(=O)N1CC[C@H]1C(=O)NCc1ccc(/C(N)=N/O)cc1)C1CCCCC1` gave an inhibition of -12%.

Repeated from above (series 1):
With `COc1cc(N[C@@H]2CCCC[C@]2(O)C(F)(F)F)ccc1F` the inhibition was 3.81%.
With `COc1cccc(NC(=O)c2nc3scc(CN(C)Cc4ccccc4)c3c(=O)[nH]2)c1` the inhibition was 26.6%.
For `COc1ccc2cc(OCC3(C(=O)O)CN(C(=O)c4ccc(F)cc4)C3)ccc2c1`, the inhibition was 16.7%.
For `NC(=O)c1ccc2nc(-c3ccc(C4(N)CCC4)cc3)c(-c3ccccc3)n2n1`, the inhibition was 11.2%.
The inhibition of `NS(=O)(=O)c1cc(NC(=O)Cc2ccccc2)ccc1Oc1cccc(Cl)c1` is reported as -8.33%.
`C[C@@H]1CN(c2cc(-c3n[nH]c4ccc(OC5(C)CC5)cc34)ncn2)C[C@H](C)O1` has an inhibition of 25.9%.
`CC(=O)N1CCC(c2ccc(C(=O)NC3=NCCN3)cc2C(F)(F)F)CC1` gave an inhibition of -0.799%.
`Cc1ccc(-c2cnc([C@@]3(O)CC[C@H](C(=O)O)C(C)(C)C3)s2)cc1Nc1cccc(C(F)(F)F)n1` has an inhibition of 23%.
`CN(C)CC#Cc1ccc(OCCCc2sc(N3CCc4cccc(C(=O)Nc5nc6ccccc6s5)c4C3)nc2C(=O)O)c(F)c1` gave an inhibition of 34.7%.
With `Cn1cc(Cl)c2c(Oc3c(F)cc(Nc4cc(Cl)nc(N)n4)cc3F)ccnc21` the inhibition was 0.85%.
